Experimental data collected from several papers.
Each line is one published result; not all experiments were run side by side. Several values in a cell are separate wells, animals, samples, runs or records. Numbers after ± are the reported error.
rep main protease: Replicase polyprotein 1ab, main protease (rep, Severe acute respiratory syndrome coronavirus 2, UniProt P0DTD1)
Spike glycoprotein: Spike glycoprotein (Severe acute respiratory syndrome coronavirus 2, UniProt P0DTC2)

SMILES	target	assay	system	setting	scale	measurement	result
CC(=O)c1ccc(NC2=C(Cl)C(=O)c3ccccc3C2=O)cc1	rep main protease	viral replication, mKate2 reporter	SARS-CoV-2	20 µM	–	inhibition	-1.41%
CCc1c(C(=O)C(N)=O)c2c(OCC(=O)O)cccc2n1Cc1ccccc1	Daboia russelii venom phospholipase A2	enzyme activity, inhibitor	MP population	0.1 µM, with: NOB substrate	reference: venom alone	remaining activity	90.2% and 95.6% and 100%
C[C@H]1CC[C@]2(NC1)O[C@H]1C[C@H]3[C@@H]4CC[C@H]5C[C@@H](O[C@@H]6O[C@H](CO)[C@H](O[C@@H]7O[C@H](CO)[C@@H](O)[C@H](O[C@@H]8OC[C@@H](O)[C@H](O)[C@H]8O)[C@H]7O[C@@H]7O[C@H](CO)[C@@H](O)[C@H](O)[C@H]7O)[C@H](O)[C@H]6O)CC[C@]5(C)[C@H]4CC[C@]3(C)[C@H]1[C@@H]2C	rep main protease	reporter gene (Gaussia luciferase), inhibitor	–	20 µM	–	inhibition	-7%
O=C(O)c1cccc(C(=O)O)n1	dihydrodipicolinate synthase (Bacillus anthracis, UniProt A0A6L7H340)	uncompetitive inhibitor	–	with: pyruvate	–	Ki	16 mM
Nc1ncnc2c1ncn2CCCNC(=O)c1ccc(S(=O)(=O)F)cc1	Calmodulin-sensitive adenylate cyclase (cya, Bacillus anthracis, UniProt P40136)	–	–	–	–	kinact	0.0002 s⁻¹
NC(=O)c1ncn([C@@H]2O[C@H](CO)[C@@H](O)[C@H]2O)c1O	rep main protease	reporter gene (Gaussia luciferase), inhibitor	HEK293T	20 µM	–	inhibition	2.27%
O=C(Cn1c(O)ccc1O)N[C@@H]1CCCCC12CCN(C(=O)c1cncc3[nH]cnc13)CC2	rep main protease	enzyme activity, inhibitor	–	5 µM, mean of runs	–	inhibition	10.6%
COc1cc(OCc2ccccn2)ccc1/C=C/c1cc(/C=C/c2ccc3cc[nH]c3c2)n[nH]1	rep main protease	viral replication, Gluc reporter	SARS-CoV-2	20 µM	–	inhibition	-0.341%
O=C(NC[C@H](NC(=O)c1cncc2ccccc12)c1ccc2ccccc2c1)c1cn[nH]n1	rep main protease	enzyme activity, inhibitor	–	5 µM, run 2	–	inhibition	13.2%
CCC[C@H](N[C@H]1CCc2cc(F)cc(F)c2C1)C(=O)Nc1cn(C(C)(C)CNCC(C)(C)C)cn1	rep main protease	reporter gene (Gaussia luciferase), inhibitor	–	20 µM	–	inhibition	-1.06%
CC[C@H](C)[C@H](NC(=O)[C@@H]1CCCN1C(=O)[C@H](C)NC(=O)[C@@H]1CSSC[C@@H]2NC(=O)[C@H](CC(=O)O)NC(=O)[C@H](CCCNC(=N)N)NC(=O)[C@H](CCC(=O)O)NC(=O)[C@H](CCCNC(=N)N)NC(=O)CNC(=O)[C@H](CC(=O)O)NC(=O)[C@@H]3CSSC[C@H](NC(=O)[C@H](CCC(=O)O)NC(=O)[C@H](CC(C)C)NC(=O)CNC(=O)[C@H](C)NC(=O)[C@H](CSSC[C@H](NC(=O)[C@H](Cc4ccccc4)NC(=O)[C@@H](N)CO)C(=O)N[C@@H](CC(C)C)C(=O)N[C@@H](C(C)C)C(=O)N[C@@H](CCCCN)C(=O)N[C@@H](Cc4c[nH]c5ccccc45)C(=O)N[C@@H](CCCCN)C(=O)N[C@@H](CCC(N)=O)C(=O)N3)NC2=O)C(=O)N[C@@H](Cc2c[nH]c3ccccc23)C(=O)N[C@@H](CCCCN)C(=O)N[C@@H](CCCNC(=N)N)C(=O)N[C@@H](CCCNC(=N)N)C(=O)NCC(=O)N[C@@H](CC(N)=O)C(=O)N[C@@H](CCCCN)C(=O)N[C@@H](CO)C(=O)N[C@@H](CO)C(=O)N[C@@H](C(C)C)C(=O)N1)C(=O)N[C@H](C(=O)O)[C@@H](C)O	Acid-sensing ion channel 1 (ASIC1, Homo sapiens, UniProt P78348)	ion current, outside-out patch clamp	HEK-293T	100 nM	reference: same patch before toxin	rise time slowing	63 ± 17 fold
CC(=O)c1ccc(O)c(O)c1	rep main protease	reporter gene (mKate2), inhibitor	–	20 µM	–	inhibition	-0.847%
C[C@@H]1O[C@@H](O[C@H]2[C@H](O[C@H]3CC[C@@]4(C)[C@@H](CC[C@]5(C)[C@@H]4CC=C4[C@@H]6CC(C)(C)CC[C@]6(C(=O)O[C@@H]6O[C@H](CO[C@@H]7O[C@H](CO)[C@@H](O[C@@H]8O[C@@H](C)[C@H](O)[C@@H](O)[C@H]8O)[C@H](O)[C@H]7O)[C@@H](O)[C@H](O)[C@H]6O)CC[C@]45C)[C@]3(C)CO)OC[C@H](O)[C@@H]2O)[C@H](O)[C@H](O)[C@H]1O	Spike glycoprotein	binding, biolayer interferometry	–	–	–	koff	0.0132 s⁻¹
O=C(O)c1cc(OCc2cn([C@@H]3O[C@H](CO)[C@H](O[C@H]4O[C@H](CO)[C@H](O)[C@H](O)[C@H]4O)[C@H](O)[C@H]3O)nn2)cc(OCc2cn([C@@H]3O[C@H](CO)[C@H](O[C@H]4O[C@H](CO)[C@H](O)[C@H](O)[C@H]4O)[C@H](O)[C@H]3O)nn2)c1	Shiga toxin subunit B (stxB, Shigella dysenteriae, UniProt Q7BQ98)	–	Escherichia coli	–	–	log IC50	-2.97
O=C(NC[C@@H]1CC2(CCOCC2)CN1C(=O)c1ccc2c(c1)C(=O)NC2)c1cccnn1	rep main protease	enzyme activity, inhibitor	–	5 µM, run 2	–	inhibition	9.9%
C=C(CC[C@@H](C(=O)O)[C@H]1[C@H](O)C[C@@]2(C)C3=CC[C@H]4C(C)(C)C(=O)CC[C@]4(C)C3=CC[C@]12C)C(C)C	rep main protease	reporter gene (mKate2), inhibitor	–	20 µM	–	inhibition	0.51%
CCc1c2c(nc3ccc(OC(=O)N4CCC(N5CCCCC5)CC4)cc13)-c1cc3c(c(=O)n1C2)COC(=O)[C@]3(O)CC	Spike glycoprotein	binding, BLI	–	–	–	koff	0.0241 s⁻¹
O=C(c1cncc2[nH]cnc12)N1CC[C@]2(CCCCN(C(=O)[C@H]3C[C@@H]4C=CC[C@@H](C4)C3)C2)C1	rep main protease	enzyme activity, inhibitor	–	5 µM, mean of runs	–	inhibition	10.9%
CC(C)=CCC/C(C)=C/COc1ccc2ccc(=O)oc2c1	rep main protease	reporter gene (mKate2), inhibitor	HEK293T	20 µM	–	inhibition	0.699%
O=C(O[C@@H]1Cc2c(O)cc(O)cc2O[C@@H]1c1cc(O)c(O)c(O)c1)c1cc(O)c(O)c(O)c1	Spike glycoprotein	binding, BLI	–	–	–	kon	231 M⁻¹ s⁻¹
O=C(CC1CC(=O)NC(=O)C1)NC[C@@H]1CC2(CCC2)CN1C(=O)[C@@H]1CCCC12CCOCC2	rep main protease	enzyme activity, inhibitor	–	5 µM, mean of runs	–	inhibition	15.6%
O=c1cc(-c2ccc(O)c(O)c2)oc2cc(O)cc(O)c12	Spike glycoprotein	binding, BLI	–	–	–	kon	175 M⁻¹ s⁻¹
Cc1cc(C2CCCCC2)n(O)c(=O)c1	Angiotensin-converting enzyme 2 (ACE2, Homo sapiens, UniProt Q9BYF1)	spike protein binding	–	with: SARS-CoV-2 spike protein	–	Emax	-95%
O=C(NCCC[C@@H](NC(=O)c1cccc2cc(=O)[nH]cc12)c1ccccc1)c1cn[nH]c(=O)c1	rep main protease	enzyme activity, inhibitor	–	5 µM, run 2	–	inhibition	15.9%
CC(C)=CCc1cc2c(cc1O)O[C@H](c1ccc(O)cc1)CC2=O	Spike glycoprotein	binding	–	–	–	koff	0.109 s⁻¹
Cc1ncc(/C=C\C(=O)N2C[C@@H](NC(=O)c3ccc[nH]c3=O)CC3(CCOCC3)C2)c(=O)[nH]1	rep main protease	enzyme activity	–	5 µM	–	inhibition	15.9%
COc1cccc(-c2nc(C(=O)NCC=CS(C)(=O)=O)c(C)[nH]2)c1	Polyprotein P1234, nsP2 protease domain (Chikungunya virus, UniProt Q5XXP4)	time-dependent inhibitor	–	–	–	kinact	0.0023 ± 0.0003 s⁻¹
CCCCCCCCOc1ccccc1C(=O)Nc1ccc(C(=O)OCC[N+](C)(CC)CC)cc1	Replicase polyprotein 1ab, nsp14 N7-methyltransferase (rep, Severe acute respiratory syndrome coronavirus 2, UniProt P0DTD1)	N7-methyltransferase activity, inhibitor, Py-FLINT	–	–	–	Hill slope	2.63 ± 1.4
O=C1NC(=O)[C@@H](CC(=O)N2C[C@H](CO)C3(C2)CN(C(=O)c2cc4ccc(O)cc4[nH]2)C3)N1	rep main protease	enzyme activity, inhibitor	–	5 µM	–	inhibition	16.1%
